Experimental data pooled from the literature.
Parts stem from different laboratories: compare values within a part only. Positions count from the first letter of the parent shown.

Study 1
Target: CCND2, cyclin fold, Cln2 fusion (human)
Method: yeast growth competition, sequencing
Matrix: yeast
Notes: weak parent motif
Baseline: not given
Direction: higher = stronger binding
Parent: CDKN1A docking peptide (human); SKACRRLFGPVDS; partner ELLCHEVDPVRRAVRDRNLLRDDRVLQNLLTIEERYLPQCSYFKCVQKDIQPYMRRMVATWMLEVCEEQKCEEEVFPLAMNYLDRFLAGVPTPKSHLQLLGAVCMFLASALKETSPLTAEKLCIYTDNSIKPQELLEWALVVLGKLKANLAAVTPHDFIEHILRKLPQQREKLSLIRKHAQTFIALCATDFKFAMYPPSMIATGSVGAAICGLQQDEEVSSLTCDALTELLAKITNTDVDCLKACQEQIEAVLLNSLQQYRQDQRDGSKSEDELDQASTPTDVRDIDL
| Change | normalised enrichment score |
| --- | --- |
| SKACRRIFGPVDS [L7I] | -0.0952 |
| SKACRRLMGPVDS [F8M] | 0.162 |
| SKACRRLFGPADS [V11A] | 0.428 |
| SKACRRLFGQVDS [P10Q] | 0.111 |
| SKACNRLFGPVDS [R5N] | 0.0305 |
| SKACRFLFGPVDS [R6F] | 0.0868 |
| AKACRRLFGPVDS [S1A] | 0.428 |
| SKACRHLFGPVDS [R6H] | 0.325 |
| SKACYRLFGPVDS [R5Y] | 0.303 |
| SKADRRLFGPVDS [C4D] | -0.0239 |
| SKAMRRLFGPVDS [C4M] | 0.0876 |

Study 2
Target: RNA binding protein fox-1 homolog 2, RRM domain, GST-SBP tag (RBFOX2, Homo sapiens, UniProt O43251-10, residues 100-194)
Method: RNA Bind-n-Seq
Molecule type: RNA
Matrix: in vitro
Concentration: 365 nM
Notes: natural RNA segment, single round, ends assumed
Baseline: no-protein control
Direction: higher = stronger binding
Constant ends, left off below: GGGAGUUCUACAGUCCGACGAUC … UGGAAUUCUCGGGUGCCAA
Construct (chain): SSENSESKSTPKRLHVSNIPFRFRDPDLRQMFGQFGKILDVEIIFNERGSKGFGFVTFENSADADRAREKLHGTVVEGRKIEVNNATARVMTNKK
| Oligonucleotide | RBNS enrichment (R) |
| --- | --- |
| GAGUAUGGGCUGAGCAGGGGGAUUGAAUGUGACUGUUAAAAACACUCAUGUACUGUCCAAAAGUGCCAGAAUGACUCUUCUGCGCAUUCUCCUUUAAGAGCUGCUUGGUU | 0.292 |
| AAAAGAUAAAAAAUAUACAUAACGAUGAAAAAUAAUACAAAUUUAAAAACCAAUACAGUAUAACAACUAUUUACAUAGUGCUUACAUUGUAUUAGGUGUUAUAAGCAAUC | 1.02 |
| ACAGGUCGGCUGUGGGGCAGCUCAGUACCCUCCCUGAGGCUCACGGUGGCUCCGAGCAUGAGGUCCGCCUCCUGGGCGAGACCCAGCAGUGGACAGCAUGGUCCUCACAC | 0.892 |
| GUUGCAAUAUAAAAGCCCUGGUGCACCUGAAUUUACUCCUGGCCUUACUAAUGAUUCAUAAUGUGAUCUUGAGAAAUGUGUUUAAGCUUUCUGAGUCUUAACCUCCUUGU | 0.742 |
| AAUUUAUGUGUAUUCUUAUUCAAAUUGCUUCUGAGAAGCAAAACUCUUUAAAUACAUUAUGGAAGAUAAUGAAGAUACUUCAUUCUCUUGUGAUAUCAGUGUAUGCGUAC | 0.329 |
| AACUAGGGAGAGGAAAAAGGAGCUCAUCUCUCAGCCCCUUCUUCAUAGCAUUUACAGCCCCGGGCUGUACCCAGACCAGGCUACCUGGGCAGCACAAAGGGCAAGGAGAG | 0.401 |
| UUCCUUCUUGAAAGCCUAAGAGUGCGUAUGCGUGUGUGUGUGUGUGUGUGUGUGUACGUGAGGCAGAAGAAUAUGACAGAUGUCAGCUUCUCCCUGUGUCAGAUGAUAUG | 1.41 |
| ACAUAUUUUUGUACUACAUGGGGACUCUUCCUGCAUGUCAGCAAUAAAACUUCCUGAUCUGGAACCAUGUGGCCUGCGUCUCCUGCCUUCUUGCCUUCCCUGCCUACAUC | 1.05 |

Study 3
Target: PABPC1L2, full length, GST fusion (mouse, UniProt A0ABA7IW68)
Method: RNAcompete
Molecule type: RNA
Matrix: in vitro
Concentration: 20 nM
Notes: 7-mer, probes averaged, single round
Baseline: mean of 7-mers
Direction: higher = stronger binding
Target sequence (chain): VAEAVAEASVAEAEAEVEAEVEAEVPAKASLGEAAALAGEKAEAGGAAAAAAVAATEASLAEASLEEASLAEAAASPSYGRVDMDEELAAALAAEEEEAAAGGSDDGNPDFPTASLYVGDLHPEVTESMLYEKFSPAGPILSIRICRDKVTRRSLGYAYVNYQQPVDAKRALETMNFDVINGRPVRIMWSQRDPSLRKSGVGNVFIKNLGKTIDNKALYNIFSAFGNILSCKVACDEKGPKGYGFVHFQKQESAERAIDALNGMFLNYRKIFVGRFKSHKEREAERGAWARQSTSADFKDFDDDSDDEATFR
| Oligonucleotide | 7-mer Z-score |
| --- | --- |
| UUAAAAU | 1.46 |
| CCGGAUA | 0.00254 |
| CACUCAA | -0.0156 |
| GGGUAUG | 0.0243 |
| CCCGCAC | -0.389 |
| GCGCGCU | -0.295 |
| CAAAAGC | 0.863 |
| ACGUAAA | 0.675 |
| CCCAGUG | -0.128 |
| GCCAUUG | -0.0989 |
| GGUACUA | 0.117 |
| CUGUUAC | -0.335 |
| ACGUAGU | -0.238 |
| CCGCAAG | -0.353 |
| UGACGAU | -0.0699 |
| AAAGAGU | 1.68 |
| UAACUCC | -0.278 |
| GUCGCGU | -0.385 |

Further values, each from its own experiment
| Substance | target | test | system | setting | how to read | quantity | value |
| --- | --- | --- | --- | --- | --- | --- | --- |
| PhoQ, residues 284 288 289 292 302 303 SLANKL | PhoP, residues 12 14 15 18 19 AYFRS (Escherichia coli, UniProt P23836) | Sort-seq, item: YFP reporter | E. coli | PhoQ-PhoP variant library, added: 10 µM Mg2+ | baseline: high Mg2+ state, higher = stronger signaling | fold induction | 11 |

Repeated from above (study 1):
| Change | normalised enrichment score |
| --- | --- |
| SKACRRLFGPADS [V11A] | 0.428 |
| SKACRRLFGQVDS [P10Q] | 0.111 |
